Measurements pooled from the literature.
Parts stem from different laboratories: compare values within a part only. Changes are numbered by the printed parent chain.

Sample 1
Target: CCND3, cyclin fold, Cln2 fusion (human)
Method: yeast growth competition, sequencing
Matrix: yeast
Notes: weak parent motif
Reference: not given
Reading: higher = stronger binding
Quantity: normalised enrichment score
Parent: SCAPER docking peptide (human); SNARRSLNFGGST
Change = KNARRSLNFGGST [S1K]; value = 0.0973
Change = SNARRSLNFGGSW [T13W]; value = 0.0943
Change = CNARRSLNFGGST [S1C]; value = 0.179
Change = SNARRSLNNGGST [F9N]; value = 0.0766
Change = SNARRSLNFGGSD [T13D]; value = 0.195
Change = SNAPRSLNFGGST [R4P]; value = 0.0627
Change = SNARRSLNFGGGT [S12G]; value = 0.199
Change = SNADRSLNFGGST [R4D]; value = 0.0806
Change = SNARRTLNFGGST [S6T]; value = 0.129
Change = WNARRSLNFGGST [S1W]; value = 0.213
Change = SNARRSLNFGCST [G11C]; value = 0.12
Change = SNARRSLNFGGSE [T13E]; value = 0.126
Change = SNARRKLNFGGST [S6K]; value = 0.181
Change = SRARRSLNFGGST [N2R]; value = 0.13
Change = SNARRSLNFGEST [G11E]; value = 0.0498
Change = SNARRSLNFGGCT [S12C]; value = 0.0837

Sample 2
Target: Interferon regulatory factor 7, full length, phosphomimetic (IRF7, Homo sapiens, UniProt Q92985, residues 1-503, S101K/S471D/S472D/S475D/S476D/S477D/S483D/S484D/S487D)
Method: protein-binding microarray
Form: double-stranded DNA, one strand shown
Matrix: in vitro
Tested at: 250 nM
Notes: 60-bp whole probe
Together with: salmon DNA 0.4 mg/ml
Reference: random background probes
Reading: higher = stronger binding
Quantity: log fluorescence
All sequences stand within: GCCTAGCAC … GTCTTGATTCGCTTGACGCTGCTG
Construct (chain): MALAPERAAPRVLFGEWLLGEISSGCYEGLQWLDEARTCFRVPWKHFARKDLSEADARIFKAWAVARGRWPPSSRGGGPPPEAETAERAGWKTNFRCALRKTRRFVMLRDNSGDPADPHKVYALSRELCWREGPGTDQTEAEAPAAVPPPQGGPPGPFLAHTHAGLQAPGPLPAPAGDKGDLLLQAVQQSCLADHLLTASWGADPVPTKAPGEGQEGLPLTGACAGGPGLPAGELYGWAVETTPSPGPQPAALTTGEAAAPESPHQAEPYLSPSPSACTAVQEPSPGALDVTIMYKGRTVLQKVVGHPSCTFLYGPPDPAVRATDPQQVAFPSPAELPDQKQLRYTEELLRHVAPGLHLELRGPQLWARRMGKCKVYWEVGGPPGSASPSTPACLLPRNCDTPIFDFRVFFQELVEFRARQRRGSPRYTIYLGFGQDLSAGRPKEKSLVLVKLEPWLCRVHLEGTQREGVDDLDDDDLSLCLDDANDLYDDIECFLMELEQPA
Sequence = GACTGTATCGGTTTCGGGACGTGCTAG; value = 4.17 z-score
Sequence = TTAGGTTTCCGTCTCGGTTAGTGCTAG; value = 2.61 z-score
Sequence = GACGGTTTCGGGACTGGGGATGTGCTA; value = 3.7 z-score
Sequence = GCCGAACTGAGTCTCGAGACGTGCTAG; value = 0.496 z-score
Sequence = GACGATCTCATTCTCGAGACGTGCTAG; value = 0.456 z-score
Sequence = TCATTTTCATATATATAACTGTGCTAG; value = 1.67 z-score
Sequence = TCATATGTGACCTTTTTAACTGTGCTA; value = -0.016 z-score
Sequence = TTAGATTTCGGGTTTCGAGTAGTGCTA; value = 4.84 z-score
Sequence = TTAGGACTGGGGTATCGGTGAGTGCTA; value = -0.462 z-score
Sequence = CTAATATTGAGACTCATGGGGTGCTAG; value = 1.14 z-score

Sample 3
Target: Sal-like protein 4, full length isoform B (SALL4, Homo sapiens, UniProt Q9UJQ4-2, residues 1-616)
Method: universal PBM
Form: double-stranded DNA, one strand shown
Matrix: in vitro
Tested at: not given
Notes: 8-mer, flanks averaged, mean of replicates
Reading: higher = stronger binding
Quantity: E-score
Sequence = CCCCGCTC; value = -0.273
Sequence = ATCGATCA; value = 0.0338
Sequence = ATACCAGC; value = -0.0614
Sequence = CAGTCGCA; value = -0.187
Sequence = AGGCTAAG; value = -0.197
Sequence = ACATTCTA; value = 0.202
Sequence = CGGGCGAG; value = -0.292
Sequence = AACAGAGA; value = 0.0083
Sequence = CATTAAAG; value = 0.152
Sequence = GGAATGAA; value = 0.0813
Sequence = GCTATCGA; value = -0.0727
Sequence = GATTCGAC; value = -0.0707
Sequence = CATGGTTA; value = 0.173
Sequence = GATTTAAA; value = 0.183
Sequence = CCTACGAA; value = -0.013
Sequence = GGGAATAC; value = -0.0103

Sample 4
Target: ABI1, truncated, D143A, DHFR fusion (Arabidopsis thaliana)
Method: DHFR PCA, deep sequencing
Matrix: yeast
Notes: methotrexate growth selection, single substitutions
Together with: (+)-ABA 710 µM
Reference: wild-type fitted maximum
Reading: higher = stronger binding
Quantity: relative binding score
Parent: PYL1, truncated, DHFR fusion (Arabidopsis thaliana); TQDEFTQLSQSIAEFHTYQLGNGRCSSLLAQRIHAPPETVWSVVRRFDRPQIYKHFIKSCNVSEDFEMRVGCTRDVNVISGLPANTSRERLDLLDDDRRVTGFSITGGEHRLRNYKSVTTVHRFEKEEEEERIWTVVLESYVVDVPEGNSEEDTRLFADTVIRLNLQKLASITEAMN; partner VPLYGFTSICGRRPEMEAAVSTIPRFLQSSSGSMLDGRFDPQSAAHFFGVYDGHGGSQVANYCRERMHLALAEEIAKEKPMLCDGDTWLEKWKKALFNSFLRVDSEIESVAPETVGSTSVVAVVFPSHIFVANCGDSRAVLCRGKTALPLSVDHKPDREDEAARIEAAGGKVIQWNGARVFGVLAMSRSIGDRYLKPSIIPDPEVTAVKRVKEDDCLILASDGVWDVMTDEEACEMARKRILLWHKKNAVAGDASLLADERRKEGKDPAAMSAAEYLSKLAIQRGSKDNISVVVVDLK
Change = T101L; value = 109%
Change = A158C; value = 101%
Change = T173H; value = 77.3%
Change = E174N; value = 90.5%
Change = C25R; value = 43.2%
Change = G148Q; value = 87.9%
Change = I57W; value = 8.54%
Change = S9G; value = 108%
Change = V145G; value = 13.6%
Change = V70R; value = 96.7%
Change = F56E; value = 13.4%
Change = T86D; value = 99%
Change = H34P; value = 98%
Change = P50F; value = -0.777%
Change = L82A; value = 80%

Sample 5
Target: Prothrombin, mature alpha-thrombin (F2, Homo sapiens, UniProt P00734)
Method: aptamer microarray, sandwich
Form: DNA with 2'F-ANA
Matrix: in vitro
Tested at: 200 nM
Notes: whole 15-mer aptamer, many near background
Together with: Cy3 exosite-II aptamer, 400 nM
Reading: higher = stronger binding
Quantity: mean fluorescence intensity
Sequence: GGTTGGTGTGGTTGG
Modification = 2'F-ANA at 3 4 5 6 7 8 12 14 15; value = 71.8 a.u.
Modification = 2'F-ANA at 1 3 5 6 7 8 12 13 14; value = 54.8 a.u.
Modification = 2'F-ANA at 2 3 5 8 12 13; value = 199 a.u.
Modification = 2'F-ANA at 1 2 9 10 12 14 15; value = 48.2 a.u.
Modification = 2'F-ANA at 1 3 6 8 10 11 14; value = 62.6 a.u.
Modification = 2'F-ANA at 2 3 4 6 7 8 12 13; value = 637 a.u.
Modification = 2'F-ANA at 1 4 8 10 11 12 13 14; value = 44.2 a.u.
Modification = 2'F-ANA at 1 2 4 6 10 13 15; value = 54.7 a.u.
Modification = 2'F-ANA at 1 2 4 7 8 9 10 11 12; value = 57.6 a.u.
Modification = 2'F-ANA at 3 4 6 8 9 11 12; value = 652 a.u.
Modification = 2'F-ANA at 1 4 6 9 11 12 13; value = 154 a.u.
Modification = 2'F-ANA at 3 4 5 6 8 9 13 15; value = 72.7 a.u.
Modification = 2'F-ANA at 2 4 6 7 8 10; value = 89.4 a.u.
Modification = 2'F-ANA at 1 2 3 5 6 7 10 11 12 13 15; value = 72.4 a.u.
Modification = 2'F-ANA at 3 4 7 9 11 14 15; value = 309 a.u.
Modification = 2'F-ANA at 1 3 6 8 9 10 11 14; value = 77.8 a.u.
Modification = 2'F-ANA at 3 4 7 8 9 10 14 15; value = 242 a.u.
Modification = 2'F-ANA at 1 2 3 4 5 6 9 11 12 13 14 15; value = 50.1 a.u.
Modification = 2'F-ANA at 2 3 4 7 9 10 12 13; value = 268 a.u.
Modification = 2'F-ANA at 2 5 6 7 10 11; value = 49.5 a.u.
Modification = 2'F-ANA at 1 2 7 8 9 11 12 13; value = 303 a.u.
Modification = 2'F-ANA at 1 4 7 8 10 14; value = 53.5 a.u.

Further values, each from its own experiment
Substance = PhoQ, residues 284 288 289 292 302 303 NLSRDF; target = PhoP, residues 12 14 15 18 19 LHHVQ (Escherichia coli, UniProt P23836); test = Sort-seq, item: YFP reporter; system = E. coli; conditions = PhoQ-PhoP variant library, together with: 10 µM Mg2+; how to read = reference: high Mg2+ state, higher = stronger signaling; quantity = fold induction; value = 2.18

A few entries again (sample 2):
Sequence = TTAGGTTTCCGTCTCGGTTAGTGCTAG; value = 2.61 z-score
Sequence = GACGGTTTCGGGACTGGGGATGTGCTA; value = 3.7 z-score
Sequence = GCCGAACTGAGTCTCGAGACGTGCTAG; value = 0.496 z-score
Sequence = GACGATCTCATTCTCGAGACGTGCTAG; value = 0.456 z-score
Sequence = TCATTTTCATATATATAACTGTGCTAG; value = 1.67 z-score
Sequence = TCATATGTGACCTTTTTAACTGTGCTA; value = -0.016 z-score
